Assay results pooled from the literature.
Each numbered part is a random draw from the data of one study; scales do not carry over between parts. ± marks the error that the study gave.

Study 1
Substance: SNC80
Mode: agonist
target | observed | Emax [%]
Delta-type opioid receptor, with Gz (OPRD1, Homo sapiens, UniProt P41143) | Gz activation | 111 ± 3
Delta-type opioid receptor, with Gi1 (OPRD1, Homo sapiens, UniProt P41143) | Gi1 activation | 119 ± 2
Delta-type opioid receptor, with Gi2 (OPRD1, Homo sapiens, UniProt P41143) | Gi2 activation | 121 ± 4
Delta-type opioid receptor, with β-arrestin2 (OPRD1, Homo sapiens, UniProt P41143) | β-arrestin2 recruitment | 125 ± 4
Delta-type opioid receptor, with GoB (OPRD1, Homo sapiens, UniProt P41143) | GoB activation | 121 ± 3
Delta-type opioid receptor, with β-arrestin1 (OPRD1, Homo sapiens, UniProt P41143) | β-arrestin1 recruitment | 154 ± 8
Delta-type opioid receptor, with GoA (OPRD1, Homo sapiens, UniProt P41143) | GoA activation | 115 ± 3

Mixed results
Substance | target or system | assay | test system | setting | measurement | value
benzalkonium bromide | Cholinesterase (BCHE, Homo sapiens, UniProt P06276) | enzyme activity, inhibitor | – | concentration not given | inhibition | -80 ± 5.25%
norbinaltorphimine | OPRM1 (Homo sapiens, UniProt P35372) | G protein activation, antagonist | CHO cells overexpressing receptor | with: DAMGO | Ke | 26.7 ± 7 nM
insulin | – | – | female C57BL/6J mice | endogenous, population model, with: glucose 0.35 g/kg iv | clearance | 6.4 mL/min
human angiotensin II | AGTR1 (Homo sapiens, UniProt P30556) | radioligand binding | – | concentration not given | inhibition | 98.9%
maraviroc | – | – | – | – | pKa | 7.3
mitragynine | Cytochrome P450 2C8 (CYP2C8, Homo sapiens, UniProt P10632) | amodiaquine N-deethylation, inhibitor | human liver microsomes | – | IC50 | 33.5 µM
phoxim-oxon | Ache (Rattus norvegicus, UniProt P37136) | enzyme activity, inhibitor, Ellman | rat, postnatal day 70, lung homogenate | 15 min, 37 °C | IC50 | 0.021 µM

Excerpt of the above (mixed results):
Substance | target or system | assay | test system | setting | measurement | value
mitragynine | Cytochrome P450 2C8 (CYP2C8, Homo sapiens, UniProt P10632) | amodiaquine N-deethylation, inhibitor | human liver microsomes | – | IC50 | 33.5 µM
